# Measurements pooled from the literature.
# Each line is one published result; not all experiments were run side by side. Values joined by “and” are separate records of one study, mostly repeats; a detail may differ.
# WNK2: Serine/threonine-protein kinase WNK2 (WNK2, Homo sapiens, UniProt Q9Y3S1)
# Sequence of UniProt Q9Y3S1 (whole entry, looked up): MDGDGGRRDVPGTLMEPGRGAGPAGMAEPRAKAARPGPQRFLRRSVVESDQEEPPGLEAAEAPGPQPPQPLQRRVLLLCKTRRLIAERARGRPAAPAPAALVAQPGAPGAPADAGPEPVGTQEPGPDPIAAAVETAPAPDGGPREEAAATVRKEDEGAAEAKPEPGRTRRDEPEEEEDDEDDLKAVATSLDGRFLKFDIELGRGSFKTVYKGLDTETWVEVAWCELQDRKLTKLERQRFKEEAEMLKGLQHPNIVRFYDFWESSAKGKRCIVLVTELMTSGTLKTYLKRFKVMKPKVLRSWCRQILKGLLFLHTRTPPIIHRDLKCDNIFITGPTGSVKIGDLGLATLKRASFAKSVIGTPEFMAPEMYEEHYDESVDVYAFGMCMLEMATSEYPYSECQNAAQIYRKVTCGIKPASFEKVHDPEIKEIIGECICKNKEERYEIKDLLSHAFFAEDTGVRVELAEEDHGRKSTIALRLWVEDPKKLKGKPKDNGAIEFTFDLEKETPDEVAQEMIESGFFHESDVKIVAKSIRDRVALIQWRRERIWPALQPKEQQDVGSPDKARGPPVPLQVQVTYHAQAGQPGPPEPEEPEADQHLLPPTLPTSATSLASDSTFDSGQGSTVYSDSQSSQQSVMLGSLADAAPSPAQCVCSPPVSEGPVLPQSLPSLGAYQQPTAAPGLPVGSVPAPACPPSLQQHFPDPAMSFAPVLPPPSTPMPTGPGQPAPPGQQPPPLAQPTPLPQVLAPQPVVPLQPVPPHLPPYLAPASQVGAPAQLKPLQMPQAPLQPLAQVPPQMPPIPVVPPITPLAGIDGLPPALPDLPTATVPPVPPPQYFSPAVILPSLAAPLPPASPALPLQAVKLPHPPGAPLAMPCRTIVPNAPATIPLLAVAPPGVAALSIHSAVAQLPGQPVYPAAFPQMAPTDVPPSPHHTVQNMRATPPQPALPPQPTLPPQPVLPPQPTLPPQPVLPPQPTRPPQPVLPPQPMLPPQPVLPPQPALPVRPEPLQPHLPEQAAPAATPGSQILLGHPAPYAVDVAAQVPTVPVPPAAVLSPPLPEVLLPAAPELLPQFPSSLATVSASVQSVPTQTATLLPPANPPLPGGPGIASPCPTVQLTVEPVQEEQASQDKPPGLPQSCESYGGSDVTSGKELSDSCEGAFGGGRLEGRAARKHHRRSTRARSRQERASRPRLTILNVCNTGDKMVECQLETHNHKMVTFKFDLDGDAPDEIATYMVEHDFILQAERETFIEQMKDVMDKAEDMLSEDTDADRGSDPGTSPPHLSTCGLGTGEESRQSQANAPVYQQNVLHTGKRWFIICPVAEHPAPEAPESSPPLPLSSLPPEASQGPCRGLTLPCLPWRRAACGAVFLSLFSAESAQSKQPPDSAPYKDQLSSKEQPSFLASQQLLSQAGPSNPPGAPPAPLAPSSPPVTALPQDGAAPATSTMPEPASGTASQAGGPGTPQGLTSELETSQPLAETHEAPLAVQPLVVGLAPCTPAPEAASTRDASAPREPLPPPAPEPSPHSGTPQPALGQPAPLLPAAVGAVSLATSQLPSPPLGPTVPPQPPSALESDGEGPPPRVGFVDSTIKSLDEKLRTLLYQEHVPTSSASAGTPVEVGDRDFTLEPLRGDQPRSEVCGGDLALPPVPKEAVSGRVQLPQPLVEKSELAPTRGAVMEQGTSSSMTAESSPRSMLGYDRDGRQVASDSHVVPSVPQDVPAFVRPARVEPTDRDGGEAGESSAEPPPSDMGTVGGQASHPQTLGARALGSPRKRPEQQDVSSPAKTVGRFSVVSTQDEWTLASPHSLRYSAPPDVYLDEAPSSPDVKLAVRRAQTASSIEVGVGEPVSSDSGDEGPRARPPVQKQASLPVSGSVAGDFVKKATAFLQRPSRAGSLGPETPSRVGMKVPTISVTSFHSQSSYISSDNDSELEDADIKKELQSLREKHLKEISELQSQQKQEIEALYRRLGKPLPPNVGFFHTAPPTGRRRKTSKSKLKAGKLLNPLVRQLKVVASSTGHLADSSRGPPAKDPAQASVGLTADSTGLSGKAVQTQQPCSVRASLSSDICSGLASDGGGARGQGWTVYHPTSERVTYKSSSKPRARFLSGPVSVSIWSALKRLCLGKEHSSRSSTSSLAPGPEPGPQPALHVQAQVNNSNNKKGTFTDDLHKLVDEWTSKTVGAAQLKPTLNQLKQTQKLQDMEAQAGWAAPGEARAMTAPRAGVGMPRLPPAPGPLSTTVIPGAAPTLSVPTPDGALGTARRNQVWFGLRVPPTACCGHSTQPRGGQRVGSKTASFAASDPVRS
# Sequence of UniProt Q9UK32 (whole entry, looked up): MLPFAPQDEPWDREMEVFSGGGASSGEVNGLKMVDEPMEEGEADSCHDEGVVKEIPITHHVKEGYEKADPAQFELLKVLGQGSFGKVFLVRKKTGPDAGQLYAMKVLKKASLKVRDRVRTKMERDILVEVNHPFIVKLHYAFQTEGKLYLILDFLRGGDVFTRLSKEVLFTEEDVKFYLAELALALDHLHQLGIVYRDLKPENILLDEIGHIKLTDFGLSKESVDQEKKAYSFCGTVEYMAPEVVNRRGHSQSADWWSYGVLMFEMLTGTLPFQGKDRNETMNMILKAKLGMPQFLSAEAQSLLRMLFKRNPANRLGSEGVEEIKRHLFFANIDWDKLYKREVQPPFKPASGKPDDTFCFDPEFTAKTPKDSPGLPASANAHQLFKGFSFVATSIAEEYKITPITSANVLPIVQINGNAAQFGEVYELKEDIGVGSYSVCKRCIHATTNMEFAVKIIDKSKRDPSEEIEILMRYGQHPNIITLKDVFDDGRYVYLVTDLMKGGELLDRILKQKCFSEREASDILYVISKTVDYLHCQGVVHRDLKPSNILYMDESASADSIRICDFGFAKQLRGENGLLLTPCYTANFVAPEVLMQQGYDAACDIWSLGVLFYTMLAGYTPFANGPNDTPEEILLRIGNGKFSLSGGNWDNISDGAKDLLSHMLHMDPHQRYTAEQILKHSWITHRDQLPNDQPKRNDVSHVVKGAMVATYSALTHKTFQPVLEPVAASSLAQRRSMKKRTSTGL
# Sequence of UniProt Q9UQB9 (whole entry, looked up): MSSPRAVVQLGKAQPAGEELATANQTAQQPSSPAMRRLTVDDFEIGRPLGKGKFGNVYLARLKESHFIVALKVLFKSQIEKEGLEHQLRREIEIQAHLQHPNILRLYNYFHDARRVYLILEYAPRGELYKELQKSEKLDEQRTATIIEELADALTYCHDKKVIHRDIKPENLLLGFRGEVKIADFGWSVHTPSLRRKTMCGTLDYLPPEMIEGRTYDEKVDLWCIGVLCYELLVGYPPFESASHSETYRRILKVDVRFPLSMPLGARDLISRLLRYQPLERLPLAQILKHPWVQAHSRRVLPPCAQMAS
Structure (SMILES),target or system,test,test system,setting,quantity,value
COc1ccnc(-c2nc3ccccn3c2Nc2ccc(F)cc2)c1,Leishmania infantum,parasite growth,,"intracellular, amastigote",IC50,6.77 µM and 3.17 µM
CC(C)[C@@H]1NC(=O)[C@@H](CCCNC(=N)N)NC(=O)[C@H]([C@@H](C)O)NC(=O)[C@@H](CCCN)NC(=O)[C@H](Cc2ccccc2)NC(=O)[C@@H](C)NC1=O,Balamuthia mandrillaris,"parasite growth, ATP luminescence",,72 h,IC50,> 20 µM
C1=C/COCc2cc(ccc2OCCN2CCCC2)Nc2nccc(n2)-c2cccc(c2)COC/1,"Ribosomal protein S6 kinase alpha-6, C-terminal kinase domain (RPS6KA6, Homo sapiens, UniProt Q9UK32)",cell-free assay,,0.1 µM,remaining signal,98%
CC(C)[C@@H]1NC(=O)[C@@H](CCCNC(=N)N)NC(=O)[C@H]([C@@H](C)O)NC(=O)[C@@H](CCCN)NC(=O)[C@H](Cc2ccccc2)NC(=O)[C@@H](Cc2ccccc2)NC1=O,Balamuthia mandrillaris,"parasite growth, ATP luminescence",,72 h,IC50,≤ 5 µM
COc1ccc(-c2nc3ccccn3c2N(C)c2ccc(F)cc2)nc1,Leishmania infantum,parasite growth,,"intracellular, amastigote",IC50,0.76 µM and 0.35 µM
CC(C)[C@@H]1NC(=O)[C@@H](CCCCN)NC(=O)[C@H]([C@@H](C)O)NC(=O)[C@@H](CCCN)NC(=O)[C@H](Cc2ccccc2)NC(=O)[C@@H](Cc2ccccc2)NC1=O,Balamuthia mandrillaris,"parasite growth, ATP luminescence",,72 h,IC50,≤ 5 µM
CO/N=C1\C[C@]2(C[C@@H]3C[C@@H](C/C=C(\C)C[C@@H](C)/C=C/C=C4\CO[C@@H]5[C@H](O)C(C)=C[C@@H](C(=O)O3)[C@]45O)O2)O[C@H](/C(C)=C/C(C)C)[C@H]1C,Haemonchus contortus,parasite motility,,"24 h, larva",IC50,0.49 µM
CN(C)c1cc(NC(=O)Cc2cnccn2)c(O)c2c1C[C@H]1C[C@H]3[C@H](N(C)C)C(O)=C(C(N)=O)C(=O)[C@@]3(O)C(O)=C1C2=O,Mycobacteroides abscessus,"microbial growth, resazurin",ATCC19977,,IC50,0.75 µg/mL
Cc1cc([C@@H](C)Nc2ccccc2C(=O)O)c2nc(N3CCC(F)(F)CC3)c(C#N)c(=O)n2c1,"DYRK1B (Homo sapiens, UniProt Q9Y463)","binding, competition with immobilised ligand",,1 µM,remaining binding,100%
CCCCCCCCCCCCCCCCOP(=O)([O-])OCC[N+](C)(C)C,Leishmania infantum,parasite growth,mouse Macrophage,"intracellular, amastigote",IC50,~5 µM
CCCCC(=O)Nc1ccc(-c2ccc3ncn(CCC)c(=O)c3c2)cn1,WNK2,"binding, competition with immobilised ligand",,0.5 µM,remaining binding,58%
CC(C)[C@@H]1NC(=O)[C@@H](Cc2c[nH]c3ccccc23)NC(=O)[C@H]([C@@H](C)O)NC(=O)[C@@H](CCCCN)NC(=O)[C@H](Cc2ccccc2)NC(=O)[C@@H](Cc2ccccc2)NC1=O,Balamuthia mandrillaris,"parasite growth, ATP luminescence",,,IC50,> 20 µM
CN(C)c1cc(NC(=O)Cc2ccccc2)c(O)c2c1C[C@H]1C[C@H]3[C@H](N(C)C)C(O)=C(C(N)=O)C(=O)[C@@]3(O)C(O)=C1C2=O,Mycobacteroides abscessus,"microbial growth, resazurin",ATCC19977,,IC50,5.38 µg/mL
Fc1ccc(Nc2c(-c3cccc(F)n3)nc3ccccn23)cc1,Leishmania infantum,parasite growth,,"intracellular, amastigote",IC50,30.1 µM and > 64 µM
CNc1ncc2c(/C=C/C(=O)N3CCC(OC)CC3)nn(Cc3cccc(C(F)(F)F)c3)c2n1,WNK2,"enzyme activity, inhibitor, radiometric",,1 µM,remaining activity,100%
C=CC(=O)N1CCC(COCC(=O)N2CCN(c3nc(-c4cnc(N)nc4C(F)F)nc(N4CCOC[C@@H]4C)n3)CC2)CC1,"Aurora kinase C (AURKC, Homo sapiens, UniProt Q9UQB9)","binding, competition with immobilised ligand",,1 µM,remaining binding,93%
CN(C)c1ccc(O)c2c1C[C@H]1C[C@H]3[C@H](N(C)C)C(O)=C(C(N)=O)C(=O)[C@@]3(O)C(O)=C1C2=O,Mycobacteroides abscessus,"microbial growth, resazurin",ATCC19977,,IC50,28.5 µg/mL
COc1cc(-c2cncc3c2CN(C)Cc2cc(N4CCNCC4)ccc2-3)cc(OC)c1OC,WNK2,"enzyme activity, inhibitor",,1 µM,remaining activity,105%

# Repeated from above:
Structure (SMILES),target or system,test,test system,setting,quantity,value
CC(C)[C@@H]1NC(=O)[C@@H](Cc2c[nH]c3ccccc23)NC(=O)[C@H]([C@@H](C)O)NC(=O)[C@@H](CCCCN)NC(=O)[C@H](Cc2ccccc2)NC(=O)[C@@H](Cc2ccccc2)NC1=O,Balamuthia mandrillaris,"parasite growth, ATP luminescence",,,IC50,> 20 µM
CN(C)c1cc(NC(=O)Cc2ccccc2)c(O)c2c1C[C@H]1C[C@H]3[C@H](N(C)C)C(O)=C(C(N)=O)C(=O)[C@@]3(O)C(O)=C1C2=O,Mycobacteroides abscessus,"microbial growth, resazurin",ATCC19977,,IC50,5.38 µg/mL
